Published values pooled from the literature.
A part holds a random share of what one study measured.
Sequence of UniProt Q9H0K1 (whole entry, looked up): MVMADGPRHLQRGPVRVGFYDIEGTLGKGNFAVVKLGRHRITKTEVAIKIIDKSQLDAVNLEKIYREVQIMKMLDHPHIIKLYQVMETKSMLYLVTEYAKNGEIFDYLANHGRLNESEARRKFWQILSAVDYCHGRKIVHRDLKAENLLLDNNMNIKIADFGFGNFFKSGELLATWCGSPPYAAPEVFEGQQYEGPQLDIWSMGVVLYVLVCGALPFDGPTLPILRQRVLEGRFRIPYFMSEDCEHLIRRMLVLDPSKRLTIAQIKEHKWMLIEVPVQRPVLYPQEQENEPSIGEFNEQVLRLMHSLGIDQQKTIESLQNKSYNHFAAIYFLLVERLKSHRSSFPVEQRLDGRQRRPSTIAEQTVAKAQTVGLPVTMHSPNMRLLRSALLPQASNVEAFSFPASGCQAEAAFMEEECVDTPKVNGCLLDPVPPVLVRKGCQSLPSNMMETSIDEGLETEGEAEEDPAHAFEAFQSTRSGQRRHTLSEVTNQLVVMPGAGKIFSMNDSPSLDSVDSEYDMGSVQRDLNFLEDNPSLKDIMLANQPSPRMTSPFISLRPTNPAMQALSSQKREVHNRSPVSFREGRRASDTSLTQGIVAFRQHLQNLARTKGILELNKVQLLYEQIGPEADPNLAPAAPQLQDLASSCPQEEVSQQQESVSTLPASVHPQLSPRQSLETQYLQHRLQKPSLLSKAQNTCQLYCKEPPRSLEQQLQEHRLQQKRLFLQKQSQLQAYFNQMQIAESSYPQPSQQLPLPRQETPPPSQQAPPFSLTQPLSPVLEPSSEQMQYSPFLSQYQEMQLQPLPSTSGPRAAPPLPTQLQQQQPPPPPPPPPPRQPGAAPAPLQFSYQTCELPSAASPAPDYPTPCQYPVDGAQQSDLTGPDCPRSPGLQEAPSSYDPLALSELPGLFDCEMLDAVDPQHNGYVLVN
Sequence of UniProt O00238 (whole entry, looked up): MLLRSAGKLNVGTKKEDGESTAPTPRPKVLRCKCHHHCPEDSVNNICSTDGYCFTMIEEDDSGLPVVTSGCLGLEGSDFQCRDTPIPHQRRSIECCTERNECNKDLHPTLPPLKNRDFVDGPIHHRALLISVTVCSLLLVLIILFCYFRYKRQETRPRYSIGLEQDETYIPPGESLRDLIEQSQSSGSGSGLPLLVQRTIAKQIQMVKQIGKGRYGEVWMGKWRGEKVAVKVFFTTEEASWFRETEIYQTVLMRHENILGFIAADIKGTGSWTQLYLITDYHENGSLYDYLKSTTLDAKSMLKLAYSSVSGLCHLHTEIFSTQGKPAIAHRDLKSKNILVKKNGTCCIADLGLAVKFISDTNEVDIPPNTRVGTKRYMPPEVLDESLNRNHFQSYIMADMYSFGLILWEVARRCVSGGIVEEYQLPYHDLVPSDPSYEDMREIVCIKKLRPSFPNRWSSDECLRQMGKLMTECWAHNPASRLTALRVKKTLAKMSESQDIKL
Sequence of UniProt O96017 (whole entry, looked up): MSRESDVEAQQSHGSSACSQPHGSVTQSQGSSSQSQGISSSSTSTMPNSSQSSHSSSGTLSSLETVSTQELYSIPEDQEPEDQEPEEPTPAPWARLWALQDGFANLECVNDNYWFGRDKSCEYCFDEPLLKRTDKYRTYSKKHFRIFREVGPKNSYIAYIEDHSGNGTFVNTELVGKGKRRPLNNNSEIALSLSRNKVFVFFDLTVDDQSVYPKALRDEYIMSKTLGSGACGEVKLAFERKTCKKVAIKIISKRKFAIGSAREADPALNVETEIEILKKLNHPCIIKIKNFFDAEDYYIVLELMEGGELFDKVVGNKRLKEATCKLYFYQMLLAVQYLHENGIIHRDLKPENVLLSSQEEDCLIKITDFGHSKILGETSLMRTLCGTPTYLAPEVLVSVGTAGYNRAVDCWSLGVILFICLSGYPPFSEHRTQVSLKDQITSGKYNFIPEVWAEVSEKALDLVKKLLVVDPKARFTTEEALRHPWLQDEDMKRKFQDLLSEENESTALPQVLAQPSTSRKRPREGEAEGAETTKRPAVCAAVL
Sequence of UniProt P49674 (whole entry, looked up): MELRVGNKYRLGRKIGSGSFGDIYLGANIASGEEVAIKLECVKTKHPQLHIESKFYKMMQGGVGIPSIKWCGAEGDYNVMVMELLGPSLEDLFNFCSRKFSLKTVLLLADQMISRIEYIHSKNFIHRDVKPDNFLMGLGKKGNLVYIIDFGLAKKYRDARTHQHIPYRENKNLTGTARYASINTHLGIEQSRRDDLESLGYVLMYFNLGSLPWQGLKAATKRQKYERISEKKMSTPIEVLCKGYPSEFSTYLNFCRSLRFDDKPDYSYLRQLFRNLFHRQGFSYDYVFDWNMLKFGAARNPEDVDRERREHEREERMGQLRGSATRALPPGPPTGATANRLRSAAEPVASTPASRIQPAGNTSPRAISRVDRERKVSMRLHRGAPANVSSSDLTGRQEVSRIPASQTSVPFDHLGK
Sequence of UniProt Q05513 (whole entry, looked up): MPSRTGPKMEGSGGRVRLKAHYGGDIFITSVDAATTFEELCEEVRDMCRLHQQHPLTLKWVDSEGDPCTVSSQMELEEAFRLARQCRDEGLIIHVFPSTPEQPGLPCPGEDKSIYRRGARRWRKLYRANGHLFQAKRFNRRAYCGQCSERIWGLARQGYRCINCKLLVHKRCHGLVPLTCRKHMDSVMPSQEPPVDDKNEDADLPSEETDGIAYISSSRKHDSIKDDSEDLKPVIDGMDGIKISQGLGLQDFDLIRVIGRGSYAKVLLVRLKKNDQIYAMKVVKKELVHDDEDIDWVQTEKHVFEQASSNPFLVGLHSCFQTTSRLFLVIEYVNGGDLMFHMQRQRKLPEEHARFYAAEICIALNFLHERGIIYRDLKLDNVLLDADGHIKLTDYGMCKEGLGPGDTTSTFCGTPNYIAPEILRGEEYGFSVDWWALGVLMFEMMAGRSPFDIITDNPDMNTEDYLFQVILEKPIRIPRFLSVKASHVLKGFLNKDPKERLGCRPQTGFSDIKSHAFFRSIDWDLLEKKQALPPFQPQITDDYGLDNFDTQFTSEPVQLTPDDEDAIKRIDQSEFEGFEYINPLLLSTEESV
Sequence of UniProt P33981 (whole entry, looked up): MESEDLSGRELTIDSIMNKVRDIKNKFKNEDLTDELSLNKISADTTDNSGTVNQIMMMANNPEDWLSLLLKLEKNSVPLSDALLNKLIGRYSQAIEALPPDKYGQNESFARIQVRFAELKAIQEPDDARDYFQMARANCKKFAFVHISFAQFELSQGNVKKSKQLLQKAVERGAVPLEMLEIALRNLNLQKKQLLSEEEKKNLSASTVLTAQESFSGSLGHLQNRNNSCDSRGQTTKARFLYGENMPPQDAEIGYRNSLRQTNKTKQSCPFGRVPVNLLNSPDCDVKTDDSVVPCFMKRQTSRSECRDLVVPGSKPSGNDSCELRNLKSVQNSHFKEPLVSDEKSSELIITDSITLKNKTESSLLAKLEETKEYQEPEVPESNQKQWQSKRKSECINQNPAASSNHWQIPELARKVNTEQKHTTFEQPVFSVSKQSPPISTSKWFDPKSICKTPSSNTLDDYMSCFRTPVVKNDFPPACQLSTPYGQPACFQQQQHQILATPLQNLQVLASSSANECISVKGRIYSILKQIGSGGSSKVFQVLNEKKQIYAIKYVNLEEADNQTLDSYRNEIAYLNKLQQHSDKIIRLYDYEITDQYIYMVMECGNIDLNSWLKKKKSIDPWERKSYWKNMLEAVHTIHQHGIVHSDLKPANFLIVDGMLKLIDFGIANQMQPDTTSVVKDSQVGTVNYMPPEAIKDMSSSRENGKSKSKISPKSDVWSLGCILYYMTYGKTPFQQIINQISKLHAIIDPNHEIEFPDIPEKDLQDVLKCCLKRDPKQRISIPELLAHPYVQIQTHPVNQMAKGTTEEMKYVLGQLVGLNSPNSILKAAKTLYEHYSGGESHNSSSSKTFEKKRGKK
Sequence of UniProt Q9H1R3 (whole entry, looked up): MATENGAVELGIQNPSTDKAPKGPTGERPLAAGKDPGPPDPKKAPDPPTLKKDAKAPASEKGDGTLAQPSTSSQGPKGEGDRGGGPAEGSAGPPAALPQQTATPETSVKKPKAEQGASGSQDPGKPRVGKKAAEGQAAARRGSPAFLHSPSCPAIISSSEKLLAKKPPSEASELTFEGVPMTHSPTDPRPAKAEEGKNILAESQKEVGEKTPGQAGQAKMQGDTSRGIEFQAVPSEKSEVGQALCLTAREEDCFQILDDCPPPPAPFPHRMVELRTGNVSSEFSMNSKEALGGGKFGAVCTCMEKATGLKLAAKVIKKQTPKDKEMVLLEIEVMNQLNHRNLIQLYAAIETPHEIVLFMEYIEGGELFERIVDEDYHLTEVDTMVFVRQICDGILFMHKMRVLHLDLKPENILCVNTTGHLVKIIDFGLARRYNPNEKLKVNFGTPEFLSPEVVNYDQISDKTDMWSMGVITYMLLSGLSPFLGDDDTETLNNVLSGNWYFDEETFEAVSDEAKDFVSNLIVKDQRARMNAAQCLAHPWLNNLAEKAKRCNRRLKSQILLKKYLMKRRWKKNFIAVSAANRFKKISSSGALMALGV
Sequence of UniProt Q14012 (whole entry, looked up): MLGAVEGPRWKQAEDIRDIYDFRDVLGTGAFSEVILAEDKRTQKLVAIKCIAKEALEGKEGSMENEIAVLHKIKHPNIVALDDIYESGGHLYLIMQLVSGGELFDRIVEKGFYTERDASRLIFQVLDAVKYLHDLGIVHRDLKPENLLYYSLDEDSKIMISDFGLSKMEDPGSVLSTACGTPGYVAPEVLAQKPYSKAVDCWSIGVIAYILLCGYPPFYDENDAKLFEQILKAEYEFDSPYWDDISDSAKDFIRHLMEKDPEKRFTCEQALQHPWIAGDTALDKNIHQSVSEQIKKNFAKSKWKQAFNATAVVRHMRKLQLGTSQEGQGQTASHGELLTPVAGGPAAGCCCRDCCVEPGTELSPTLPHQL

Series 1
Cell line: HaCaT
Tested at: 100 µM
Time: 18 h
| Compound | viability [%] |
| --- | --- |
| CN(c1nccc(=O)[nH]1)C1CCN(c2nc3ccccc3n2Cc2ccc(F)cc2)CC1 | 57.6 |
| OC[C@@H](O)[C@@H](O)[C@H](O)[C@@H](O)CO | 111 |
| Cc1nc(C)c(C)nc1C | 107 |
| COc1cnc(NS(=O)(=O)c2ccc(N)cc2)nc1 | 110 |
| COc1cc(NC(C)CCCN)c2ncccc2c1 (centres unmarked) | 15 |
| CN1CCCCC1CCN1c2ccccc2Sc2ccc([S+](C)[O-])cc21 (centres unmarked) | 91.6 |
| O=C(O[C@H]1CN2CCC1CC2)N1CCc2ccccc2[C@@H]1c1ccccc1 | 17.9 |
| NC(CO)C(=O)NNCc1ccc(O)c(O)c1O (centres unmarked) | 92.7 |
| CCCCCCCCCCCCCCCCOc1nc2ccc(C)cc2c(=O)o1 | 115 |

Series 2
SMILES: Fc1ccc(-c2nc3n(c2-c2ccncc2)CCS3)cc1
Effect on: enzyme activity
Action: inhibitor
Tested at: 0.5 µM
Reference: control
| target | remaining activity |
| --- | --- |
| CAMK1 (Homo sapiens, UniProt Q14012) | 107% |
| SIK2 (Homo sapiens, UniProt Q9H0K1) | 108% |
| CLK2 (Homo sapiens, UniProt P49760) | 105% |
| SRPK1 (Homo sapiens, UniProt Q96SB4) | 100% |
| CSNK1E (Homo sapiens, UniProt P49674) | 20% |
| Cyclin-dependent kinase 2, with cyclin E (CDK2, Homo sapiens, UniProt P24941) | 87.9% |
| IGF1R (Homo sapiens, UniProt P08069) | 106% |
| EPHA6 (Homo sapiens, UniProt Q9UF33) | 94.7% |
| FLT1 (Homo sapiens, UniProt P17948) | 84.1% |
| CSNK1D (Homo sapiens, UniProt P48730) | 6.99% |
| JAK1 (Homo sapiens, UniProt P23458) | 106% |
| TEC (Homo sapiens, UniProt P42680) | 130% |
| CLK1 (Homo sapiens, UniProt P49759) | 103% |
| SGK2 (Homo sapiens, UniProt Q9HBY8) | 105% |
| CAMKK1 (Homo sapiens, UniProt Q8N5S9) | 113% |
| PRKCQ (Homo sapiens, UniProt Q04759) | 123% |
| EPHA2 (Homo sapiens, UniProt P29317) | 107% |
| PAK6 (Homo sapiens, UniProt Q9NQU5) | 106% |
| TYRO3 (Homo sapiens, UniProt Q06418) | 104% |
| MAP3K20 (Homo sapiens, UniProt Q9NYL2) | 100% |
| PRKCZ (Homo sapiens, UniProt Q05513) | 90.6% |
| PAK1 (Homo sapiens, UniProt Q13153) | 96.1% |
| RPS6KA3 (Homo sapiens, UniProt P51812) | 107% |

Series 3
Structure (SMILES): CN(c1ccnc(CNc2nc(Nc3ccc4c(c3)CC(=O)N4)ncc2C(F)(F)F)n1)S(C)(=O)=O
Technique: competition with immobilised ligand
Tested at: 1 µM
| target | effect on | remaining binding [%] |
| --- | --- | --- |
| CHEK2 (Homo sapiens, UniProt O96017) | binding | 0 |
| BMPR1B (Homo sapiens, UniProt O00238) | cell-free assay | 3.6 |
| TTK (Homo sapiens, UniProt P33981) | cell-free assay | 13 |
| AKT2 (Homo sapiens, UniProt P31751) | cell-free assay | 82 |
| Receptor-type tyrosine-protein kinase FLT3, autoinhibited (FLT3, Homo sapiens, UniProt P36888) | cell-free assay | 64 |
| HASPIN (Homo sapiens, UniProt Q8TF76) | cell-free assay | 76 |
| GSK3B (Homo sapiens, UniProt P49841) | cell-free assay | 57 |
| STK32C (Homo sapiens, UniProt Q86UX6) | cell-free assay | 76 |
| Non-receptor tyrosine-protein kinase TYK2, JH1 (TYK2, Homo sapiens, UniProt P29597) | cell-free assay | 27 |
| EPHA8 (Homo sapiens, UniProt P29322) | cell-free assay | 100 |
| MAP3K19 (Homo sapiens, UniProt Q56UN5) | cell-free assay | 0.4 |
| Aurora kinase C (AURKC, Homo sapiens, UniProt Q9UQB9) | cell-free assay | 14 |
| Tyrosine-protein kinase ABL1, non-phosphorylated (ABL1, Homo sapiens, UniProt P00519, F317L) | cell-free assay | 71 |
| MAP3K6 (Homo sapiens, UniProt O95382) | cell-free assay | 73 |
| SIK2 (Homo sapiens, UniProt Q9H0K1) | cell-free assay | 41 |
| MYLK2 (Homo sapiens, UniProt Q9H1R3) | cell-free assay | 53 |
| TAOK3 (Homo sapiens, UniProt Q9H2K8) | cell-free assay | 12 |
| MAP3K1 (Homo sapiens, UniProt Q13233) | cell-free assay | 49 |

Series 4
Cell line: mouse MPNST tumor cells
Technique: high-content nuclear imaging
Item: cell number
Tested at: 10 µM
Time: 12 h
Setting: mean of 2 replicates
Reference: plate mean
Direction: higher = more cells
| Compound | nuclei count |
| --- | --- |
| CCc1ccc(NC(=O)Nc2c[nH]c3ccccc23)cc1 | -3.86 z-score |
| CC[C@H]1OC(=O)[C@H](C)[C@@H](O[C@H]2C[C@@](C)(OC)[C@@H](O)[C@H](C)O2)[C@H](C)[C@@H](O[C@@H]2O[C@H](C)C[C@H](N(C)C)[C@H]2O)[C@](C)(O)C[C@@H](C)/C(=N\OCOCCOC)[C@H](C)[C@@H](O)[C@]1(C)O | 0.926 z-score |
| c1ccc(CNCc2ccc(CN3CCCNCCNCCCNCC3)cc2)nc1 | 2.02 z-score |
| Cc1ccc(NC(=O)CCCCCC(=O)Nc2ccccc2N)cc1 | 1.7 z-score |
| COc1ccc(-c2ccc(OCc3cc(C(=O)NS(=O)(=O)c4ccccc4C)oc3C)cc2)nc1 | 0.192 z-score |
| CCCCC(C)(O)C/C=C/[C@H]1[C@H](O)CC(=O)[C@@H]1CCCCCCC(=O)OC (mixture of isomers) | 0.396 z-score |

Some of these lines once more (series 3):
| target | effect on | remaining binding [%] |
| --- | --- | --- |
| Non-receptor tyrosine-protein kinase TYK2, JH1 (TYK2, Homo sapiens, UniProt P29597) | cell-free assay | 27 |
| MAP3K6 (Homo sapiens, UniProt O95382) | cell-free assay | 73 |
| HASPIN (Homo sapiens, UniProt Q8TF76) | cell-free assay | 76 |
| TTK (Homo sapiens, UniProt P33981) | cell-free assay | 13 |
| BMPR1B (Homo sapiens, UniProt O00238) | cell-free assay | 3.6 |
| MYLK2 (Homo sapiens, UniProt Q9H1R3) | cell-free assay | 53 |
| MAP3K1 (Homo sapiens, UniProt Q13233) | cell-free assay | 49 |
